Measured values from different studies.
Numbered parts are unrelated; each lists some results of a single study.

Series 1
Target: Histone acetyltransferase KAT6A, both winged helices, GST fusion (KAT6A, Homo sapiens, UniProt Q92794, residues 1-181)
Technique: protein binding microarray
Molecule type: double-stranded DNA, one strand shown
Medium: in vitro
Concentration: not given
Notes: 8-mer, flanks averaged, mean of 2 arrays, mostly near background
Baseline: not given
Direction: higher = stronger binding
Target sequence (chain): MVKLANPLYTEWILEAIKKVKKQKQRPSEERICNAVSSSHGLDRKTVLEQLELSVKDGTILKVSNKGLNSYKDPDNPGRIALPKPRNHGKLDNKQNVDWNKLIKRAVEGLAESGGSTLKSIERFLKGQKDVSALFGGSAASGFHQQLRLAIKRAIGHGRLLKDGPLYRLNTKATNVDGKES
Sequence	E-score
CCGCCTAA	0.18
ATGGTCCC	-0.116
CTATGATA	-0.0878
CTGAGATA	-0.166
CGCCAATA	0.00736
CCGAATAG	-0.0101
GGACATCA	0.0264
TAAGAGGA	-0.317
CCTTACGC	0.165
GAGTCAAA	-0.0576
ACTGAGCG	0.133
AACTTATA	-0.0498
AGACGCCA	0.12
CTCCCGCC	0.194
TCCAGAAA	-0.0239
GCGAAGGA	0.0635
CGCCTGAA	0.0528
ATCGAAAG	0.0297
GGATTCCA	-0.0356
GAGGCTAC	-0.172
AGGGCCAA	-0.119
CATATCAG	0.0088
GATACACC	0.111
CACGCAAA	0.0702
GTCCGCGA	0.174

Series 2
Target: RING finger protein unkempt homolog, zinc fingers 1-6, GST-SBP tag (UNK, Homo sapiens, UniProt Q9C0B0, residues 30-357)
Technique: RNA Bind-n-Seq
Molecule type: RNA
Medium: in vitro
Concentration: not given
Notes: RNA with constant flanks, ends assumed
Baseline: input RNA pool
Direction: higher = stronger binding
Shared flanks, not repeated: GGGAGUUCUACAGUCCGACGAUC … CAACAGAGGAUUGAGCAUCA
Target sequence (chain): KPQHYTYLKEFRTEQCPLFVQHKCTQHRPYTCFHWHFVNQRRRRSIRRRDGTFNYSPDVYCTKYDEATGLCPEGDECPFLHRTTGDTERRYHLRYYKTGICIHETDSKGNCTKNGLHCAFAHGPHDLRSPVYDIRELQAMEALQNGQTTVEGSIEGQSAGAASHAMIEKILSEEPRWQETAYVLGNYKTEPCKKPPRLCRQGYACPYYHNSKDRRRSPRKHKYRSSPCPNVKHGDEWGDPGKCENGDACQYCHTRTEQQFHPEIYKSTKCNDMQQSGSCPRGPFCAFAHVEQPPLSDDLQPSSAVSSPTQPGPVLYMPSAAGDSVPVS
Sequence	bound/input enrichment
UAAGUAUGAAAUGGUGUAUGCCAGUACACAUUCCUCUUCCAGUUCUCCUAAGUGCUGACCACCCGGUCAGUCUGGGACACAUCAGUGUAUGGCUAGGCUGGCUAGCUUUAGCACAGUGGA	0.165 ratio
GAUCCCUUGAUGGCCCCAGAAUCCCAUAUAUUAGCUUCUAACACCAUGGAGACCCAUAUAUCCGCAUCCAACACCAUGGACUCCCAAAUGCUAGCGUCCAACACCAUGGACUCCCAGAUG	1.41 ratio
UUAUACCAAGUGGAGUAUGCCAUGGAAGCCAUUGGACAUGCAGGCACCUGUUUGGGGAUUUCCGCCAAUGAUGGAGUUUUGCUUGCAGCGGAGAGGCGCAACAUCCACAAGCUUCUUGAU	0.0922 ratio
UUAAUGUUCUUAAUAAAGUGUUCUUGGAGUUUAACCUAGCAGCGGAUGGCUUUCUUCCGCUCCGCCCAGUUUCCAGGGAAGCAUUGUUUUUUCCAGGCUGUAAAAUGGCAGAAUCUCCUG	0.283 ratio
UUACAACUCAGAUUUUAUUUAUUUUGAAAUUAUCAAUUGUAUAAAUCUAAUUUAUUACCAAACCGGGUCUUUUAAAAAAUAUUUUUAUCGUUGAAACCUUGACAGGUACUUCAUAUUCUU	1.47 ratio
AUGGAUGACAAGGCCUCUGUUGGAAAAAUCAGUGUCUCAUCAGACUCAGUGUCUACUCUUAACCGUGAAGAUUUUGUCUUGGUUUCCAGGCAAGGAGAUGAGACACCAUCUACAAAUAAU	0.224 ratio
AUUCGCCUUUGUCUUGUACUUCUGUGUUCAUUCUCCUCCCCCACCCCCAAUUUUUGCCCGUGUGUCCACUAUCCCAAUCAAAGAAUUACAGUAUACGUCACCCCAGAACCCGCAGAUGUG	0.711 ratio
UCCCAGACUCCAACUCCCAGUUCUACUUUCUUCCAGGCAGAGCUGUGGAUCAAAGAAUUAACCCGUGUUUAUGAUUCUCGAGCACGAGAAAGAUUGCGCCAGAUUGAAGAACAGAAGGCA	0.389 ratio

Series 3
Target: RNA binding protein fox-1 homolog 2, RRM domain, GST-SBP tag (RBFOX2, Homo sapiens, UniProt O43251-10, residues 100-194)
Technique: RNA Bind-n-Seq
Molecule type: RNA
Medium: in vitro
Concentration: 365 nM
Notes: natural RNA segment, single round, ends assumed
Baseline: no-protein control
Direction: higher = stronger binding
Shared flanks, not repeated: GGGAGUUCUACAGUCCGACGAUC … UGGAAUUCUCGGGUGCCAA
Residues (chain): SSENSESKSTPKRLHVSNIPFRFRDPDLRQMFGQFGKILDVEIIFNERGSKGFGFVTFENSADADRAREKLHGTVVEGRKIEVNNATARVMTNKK
Sequence	RBNS enrichment (R)
UCAGUUAACUUUUUCAGCUAUUUUUAAAGUUUGUGAAUGGAGUGUUAUUUUGGACAUUCUUAAAUAUGAAUUCUCCAAAGGCAUUUAGCCUUGACUUAAUAUUAAAUCCU	0.59
GCCUUGGAUGGAGACAGACACUACUGGAGAAGGGGGCUGCCUUCCCCAGAAAGAAUACUACCUAAAUGCUGGUUCAUCAGAGAGUAACUGUGAAGAGCAUCUCAGAUAAG	0.976
GUUCUGACCCGUCAGCAGCCUGCUUCUGACCCAAGAUGGCCUCGUGACUAGACCUGUUUUUAAGGAAGCGCUGUCUGUUUUUAAGUAUUCUUAAAAACGUUUUGGAAAGC	0.25
UCACUGCUUCUUGCCAGUUAUGACUGUCAUUCCCUUCGCACCAGCUGUACCACUCCCAGAGGUCUGAGCAGGCCACAGAUAGCCCCCACCUUGCAGAGCAGGAAGUUUAG	0.607
GAGCAAUUAGCGCUUGUCAGCUUACCUUACAACACAGAGGGUCCAGCUGUUCACACAAGGGGGCAGGAGCUCUGGUGGGUGUGCAGCCAUGUGGUCACAGCCUGCCAGCA	1.36
CCUUCAUCGUAACAGCAGCGUGAAGUCCACAAUGGGCACCGUGACUGGGUGUUGGGCAUGGGGGCCCAUGGAGUCAAAAGGAAUGGAGAGAAGGGCUUUGUAAAUAGCAU	1.12
AUAUUUUCUUCCCCAUCCGCUGGUUUACAUUUCUGUAACAGUUGCAUAUGGCUAGCACCAUGGACUAUAUAUACCCACUGACCGAUUUUCAUUAAAUUUUGUCUUAUAAA	0.712
CUGGACUUUGGUAUCUGAGGCAGAGGUGAACUGCAGGCCAGUGGCUCCUCUUGGGGAAAUUGUGUAUGUAUUCACUUAGGUCAAAGCCUGACCUUCGAGCAACCUCUCCU	0.379

Series 4
Target: Sal-like protein 4, full length isoform B (SALL4, Homo sapiens, UniProt Q9UJQ4-2, residues 1-616)
Technique: universal PBM
Molecule type: double-stranded DNA, one strand shown
Medium: in vitro
Concentration: not given
Notes: 8-mer, flanks averaged, mean of replicates
Direction: higher = stronger binding
Sequence	E-score
GTACAAAA	0.289
TCTGGTCA	-0.0754
AAGCACTG	0.058
AGGGCCCC	-0.344
ACAACCTG	0.0727
AAATCGGC	-0.153
GAGTCTCA	-0.144
AATACAGT	0.237
CGGGCTCC	-0.34
GGGGATAA	0.202
AAACGAAC	0.138
ATCTAGCA	0.0743
ACGCTAAC	-0.21
ACGAACCA	-0.0491
CGAAAGCG	-0.206
AGTAGACA	0.0591
GTACGAGA	0.083
AAACCAGT	0.0497
ACTTATTC	0.247
GAAGCAAA	0.0898
CGCGACAA	0.0486
CTCTCTCC	-0.185
AGTGAAAG	-0.0167
ATCCTCGA	-0.0743
CGGTCCAC	-0.331
